Measurements of several laboratories.
± marks the error that the study gave.

With CC#CC(=O)NCCCC(=O)c1nc(-c2ccc(C(=O)Nc3ccccn3)cc2)c2c(N)nccn12 the Tmax was 0.8 h (human, severe hepatic impairment, plasma; oral, 50 mg acalabrutinib, single, median).
For O=C(CCCCCCC(=O)Nc1ccccc1)NO, the Tmax was 3.4 h (human patients, serum; oral, 100 mg twice daily, day 5, with: FOLFOX).
CO[C@H]1C[C@@H]2CC[C@@H](C)[C@@](O)(O2)C(=O)C(=O)N2CCCC[C@H]2C(=O)O[C@H]([C@H](C)C[C@@H]2CC[C@@H](O)[C@H](OC)C2)CC(=O)[C@H](C)/C=C(\C)[C@@H](O)[C@@H](OC)C(=O)[C@H](C)C[C@H](C)/C=C/C=C/C=C/1C has a Tmax of 6 h (healthy adult human, blood; 0.5 mg single dose, median, with: ritonavir-containing 3D regimen).
The Tmax of O=C(O)[C@H](c1ccccc1Cl)N1CCc2sccc2C1 is reported as 1 h (human patients, CYP3A4 wt/wt, plasma; oral, 75 mg clopidogrel daily, day 7, median).
N[C@]1(C(=O)O)[C@H]2[C@@H](C[C@@H]1F)[C@@H]2C(=O)O has a Tmax of 2 h (human, both sexes, fed, plasma; oral, 5 mg, day 14, multiple ascending dose).
O=C(CCCCCCC(=O)Nc1ccccc1)NO gave a Tmax of 1 ± 0.9 h (human, cycle 1 day 2, plasma; oral, 400 mg, with: bortezomib).
COc1ccc2nc([S@@+]([O-])Cc3ncc(C)c(OC)c3C)[nH]c2c1 has a Tmax of 2.6 ± 1.34 h (HPLC; human CYP2C19 poor metabolizers, plasma; oral, 40 mg/day, day 5, pantoprazole).
For CC(C)(Sc1ccncc1-c1ccc(C#N)c2ccccc12)C(=O)O, the Tmax was 3 to 4 h (human, plasma; oral, dose not given, alone or with febuxostat).
With COc1ccnc(C[S+]([O-])c2nc3ccc(OC(F)F)cc3[nH]2)c1OC (centres unmarked) the Tmax was 2.3 h (human, obese children with GERD, plasma; oral, 1.2 mg/kg lean body weight, age 6-11 y, single dose; median).
CC(C)[C@H](N)C(=O)NCCCS(=O)(=O)O gave a Tmax of 0.75 h (healthy human, both sexes, plasma; oral, 300 mg capsule, median).
CN[C@@H]1COc2c(S(=O)(=O)NC(=O)Nc3c4c(cc5c3CCC5)CCC4)cnn2C1 has a Tmax of 2 h (human; oral, 600 mg, fasted, median).
COCCCCn1c(C(=O)N(CC(C)C)[C@@H]2CNC[C@H](C(=O)N3CCOCC3)C2)nc2ccccc21 has a Tmax of 2 h (human, elderly, plasma; oral, 80 mg once daily, day 7, median).
For CC(=O)c1c(C)c2cnc(Nc3ccc(N4CCNCC4)cn3)nc2n(C2CCCC2)c1=O, the Tmax was 6.6 ± 2 h (human; oral, 50 mg/m^2 single dose, day 1).
CNC(=O)c1cc(Oc2ccc(NC(=O)Nc3ccc(Cl)c(C(F)(F)F)c3)cc2)ccn1 has a Tmax of 8.5 h (human patients, plasma; oral, dose not given, day 1, steady state, with: tanespimycin).
CCS(=O)(=O)N1CC(CC#N)(n2cc(-c3ncnc4[nH]ccc34)cn2)C1 has a Tmax of 0.5 to 1 h (healthy Chinese human, plasma; oral, 2 to 10 mg).
With CC(C)(C)OC[C@@H]1C(=O)NCCN1C(=O)C[C@H](N)Cc1cc(F)c(F)cc1F the Tmax was 5 h (human, male, plasma; oral, single dose, fixed-dose combination with metformin, fed high-fat, median).
CC(C)NC[C@@H](C(=O)N1CCN(c2ncnc3c2[C@H](C)C[C@H]3O)CC1)c1ccc(Cl)cc1 gave a Tmax of 1 h (human, Healthy hepatic function, plasma; oral, 100 mg single dose, NCI classification, median).
C[C@H](N)C(=O)N1C[C@H](CCCB(O)O)[C@](N)(C(=O)O)C1 gave a Tmax of 2 to 4 h (human, plasma; oral, dose not given, multiple dosing).
With CCOc1ccc(Cc2cc([C@]34OC[C@](CO)(O3)[C@@H](O)[C@H](O)[C@H]4O)ccc2Cl)cc1 the Tmax was 1 to 1.5 h (human, fasted, plasma; oral, dose not given, range of medians, monotherapy and fixed-dose combinations).
The Tmax of CS(=O)(=O)n1cc2c(n1)CN([C@H]1CO[C@H](c3cc(F)ccc3F)[C@@H](N)C1)C2 is reported as 4 h (healthy male human, plasma; oral, 50 mg once weekly, day 1, fasted, median).
For Cn1cncc1[C@@](N)(c1ccc(Cl)cc1)c1ccc2c(c1)c(-c1cccc(Cl)c1)cc(=O)n2C, the Tmax was 2 h (human, plasma; oral, 1200 mg, day 1).
The Tmax of O=C(c1nc2n(n1)[C@H](c1ccccc1)C[C@@H]2F)C1CC1 is reported as 4 h (human; oral, 75 mg, single dose, high-fat meal, median).
With COc1c(N2C[C@@H]3CCCN[C@@H]3C2)c(F)cc2c(=O)c(C(=O)O)cn(C3CC3)c12 the Tmax was 1 h (human; oral, 400 mg single dose, median).
The Tmax of C=C(C)[C@@H]1CC[C@]2(NCCN3CCS(=O)(=O)CC3)CC[C@]3(C)[C@H](CC[C@@H]4[C@@]5(C)CC=C(C6=CC[C@@](CF)(C(=O)O)CC6)C(C)(C)[C@@H]5CC[C@]43C)[C@@H]12 is reported as 3.5 to 4 h (human, plasma; oral, dose not given).
For O=c1[nH]c(=O)c(Cc2cccc(C(F)(F)F)c2)c([C@H]2CC[C@H](c3ccccc3)CC2)[nH]1, the Tmax was 2.01 h (human, fasted, plasma; oral, 100 mg single dose, median).
For CCc1cc(/C(C)=N/OCc2ccc(C3CCCCC3)c(C(F)(F)F)c2)ccc1CN1CC(C(=O)O)C1, the Tmax was 4 h (healthy human, plasma; oral, 4 mg, median, with: fluconazole steady state).
With NC(=O)N1CCC(CC(=O)N2CCC([C@H]3c4ncc(Br)cc4CCc4cc(Cl)cc(Br)c43)CC2)CC1 the Tmax was 5.5 h (human, plasma; oral, 100 mg twice daily, cycle 2 day 15, multiple dose, median, with: gemcitabine 1000 mg/m2).
The Tmax of O=C(Nc1ccc(OC(F)(F)Cl)cc1)c1cnc(N2CC[C@@H](O)C2)c(-c2ccn[nH]2)c1 is reported as 1.99 h (human, plasma; oral, 40 mg twice daily, steady state,, median, with: repaglinide).
Cc1nc(Nc2ncc(C(=O)Nc3c(C)cccc3Cl)s2)cc(N2CCN(CCO)CC2)n1 has a Tmax of 1.2 h (human, plasma; oral, 100 mg, without omeprazole, median, range 0.5 to 3 h).
Cc1ccc(NC(=O)c2ccc(CN3CCN(C)CC3)cc2)cc1Nc1nccc(-c2cncc(-c3oncc3C)c2)n1 gave a Tmax of 5 h (older healthy human adults, plasma; oral, 250 mg single dose, fed, mean).
CC[C@@]1(O)C(=O)OCc2c1cc1n(c2=O)Cc2cc3c(CN(C)C)c(O)ccc3nc2-1 has a Tmax of 1.25 h (human patients; oral, 4 mg, day 15, median, with: pazopanib 800 mg).
COC(=O)c1ccc2c(c1)NC(=O)/C2=C(\Nc1ccc(N(C)C(=O)CN2CCN(C)CC2)cc1)c1ccccc1 gave a Tmax of 4 h (human, hepatic impairment Child-Pugh A, plasma; oral, 100 mg single dose, median).
With COc1ccnc(C[S+]([O-])c2nc3ccc(OC(F)F)cc3[nH]2)c1OC (centres unmarked) the Tmax was 4 h (HPLC; human CYP2C19 ultra-rapid metabolizers, plasma; oral, 40 mg/day, day 5, esomeprazole).
Cc1cccc(Cn2nc(C3CC3)c3c(NC(=O)c4cnc5cc(OCCN6CCN(C)CC6)ccn45)cccc32)n1 gave a Tmax of 2 h (human patients Overall, plasma; oral, 300 mg, cycle 1 day 1, median).
The Tmax of CN1C(=O)[C@@H](NC(=O)c2nnc(Cc3ccccc3)[nH]2)COc2ccccc21 is reported as 2 h (human male, plasma; oral, 120 mg twice daily, day 1).
C=C(C)[C@@H]1CC[C@]2(NCCN3CCS(=O)(=O)CC3)CC[C@]3(C)[C@H](CC[C@@H]4[C@@]5(C)CC=C(C6=CC[C@@](CF)(C(=O)O)CC6)C(C)(C)[C@@H]5CC[C@]43C)[C@@H]12 has a Tmax of 2.93 to 5.53 h (human, HIV-1 treatment-naive, plasma; oral, 10 to 200 mg single, day 1).
O=C(Cc1cccc(OC(F)(F)F)c1)Nc1ccc(CCCCc2nnc(NC(=O)Cc3ccccn3)s2)nn1 gave a Tmax of 2.02 h (human patients, plasma; oral, 800 mg three times daily fasted, cycle 1 day 15 steady state).
CN(Cc1cnc2nc(N)nc(N)c2n1)c1ccc(C(=O)N[C@@H](CCC(=O)O)C(=O)O)cc1 has a Tmax of 1 h (human, plasma; oral, day 8, median, with: isavuconazole co-administration).
